Published values pooled from the literature.
Lines come from different studies, so protocols differ. Values joined by “and” are separate records of one study, mostly repeats; a detail may differ. Numbers after ± are the reported error.
pyrD: Dihydroorotate dehydrogenase (quinone) (pyrD, Acinetobacter baumannii, UniProt B7GZW7)
AKR1B1: Aldo-keto reductase family 1 member B1 (AKR1B1, Homo sapiens, UniProt P15121)
ERBB2: Receptor tyrosine-protein kinase erbB-2 (ERBB2, Homo sapiens, UniProt P04626)
MAOB: Amine oxidase [flavin-containing] B (MAOB, Homo sapiens, UniProt P27338)
Kir3.1/Kir3.4: Kir3.1/Kir3.4 (Homo sapiens, UniProt P48544+P48549)
T1: aptamer DNA aminoglycoside aptamer; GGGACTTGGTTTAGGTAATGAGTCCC
T2: riboswitch RNA SAM-I metF-H2 (Thermoanaerobacter tengcongensis); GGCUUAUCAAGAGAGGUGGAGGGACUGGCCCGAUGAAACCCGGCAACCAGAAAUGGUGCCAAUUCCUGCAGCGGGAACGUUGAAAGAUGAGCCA
T3: riboswitch RNA yjdF aptamer domain (Bacillus subtilis); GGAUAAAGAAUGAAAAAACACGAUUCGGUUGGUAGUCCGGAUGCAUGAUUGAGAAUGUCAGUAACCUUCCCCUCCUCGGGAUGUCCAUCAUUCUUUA

SMILES	target	assay	test system	setting	how to read	measurement	value
NC[C@H]1O[C@H](O[C@H]2[C@H](O)[C@@H](O[C@H]3O[C@H](CO)[C@@H](O)[C@H](N)[C@H]3O)[C@H](N)C[C@@H]2N)[C@H](O)[C@@H](O)[C@@H]1O	T1, aptamer DNA aminoglycoside aptamer	square-wave voltammetry		apparent, aptamer electrode, Langmuir fit		Kd	500 µM
O=C(COP(=O)(O)O)[C@@H](O)[C@H](O)[C@H](O)COP(=O)(O)O	DnaJ homolog subfamily A member 1 (DNAJA1, Homo sapiens, UniProt P31689)	thermal proteome profiling	HepG2 cell lysate	concentration not given, 57 over 37 °C	baseline: compound over control	thermal stability ratio	0.833 and 0.682 and 0.472
Cc1cc(Nc2ccc(C(F)(F)F)cc2)c2ccccc2n1	pyrD	enzyme activity, inhibitor, colorimetric HTS, measured: DCIP reduction		3 µM	direction not given	robust Z-score	23.4
Nc1nc2c(ncn2[C@@H]2O[C@H](COP(=O)(O)O)[C@@H](O)[C@H]2O)c(=O)[nH]1	GUK1 (Homo sapiens, UniProt Q16774, S37P)	enzyme activity, NADH-coupled		125 µM		reaction rate	0.805 s⁻¹ and 0.472 s⁻¹ and 0.73 s⁻¹
Nc1ncnc2c1ncn2[C@@H]1O[C@H](COP(=O)(O)OP(=O)(O)OP(=O)(O)O)[C@@H](O)[C@H]1O	P2X purinoceptor 7 (P2rx7, Rattus norvegicus, UniProt Q64663)	ion current, agonist, two-electrode voltage clamp	Xenopus laevis oocytes	333 µM	baseline: highest concentration response	normalized current	0.95 and 0.93 and 1
COc1ccc(/C=C2\SC(=O)N(CC(=O)c3ccc([N+](=O)[O-])cc3)C2=O)cc1	AKR1B1	enzyme activity, inhibitor				Hill slope	-0.555
CC[C@H](C)[C@H](NC(=O)[C@H](CO)NC(=O)[C@H](CCCNC(=N)N)NC(=O)[C@H](CC(C)(C)C)NC(=O)[C@H](CCCCNC(=O)CN(CCNC(=O)CN(CCNC(=O)CN(CCNC(=O)CN(CCNC(=O)[C@H](CCCNC(=N)N)NC(C)=O)C(=O)Cn1ccc(N)nc1=O)C(=O)Cn1cnc2c(=O)[nH]c(N)nc21)C(=O)Cn1cnc2c(=O)[nH]c(N)nc21)C(=O)Cn1ccc(N)nc1=O)NC(=O)[C@H](C)NC(=O)[C@H](CCCNC(=N)N)NC(=O)[C@H](CCCCN)NC(=O)[C@H](CCC(N)=O)NC(=O)[C@H](CCC(N)=O)NC(=O)[C@H](CC(N)=O)NC(=O)[C@@H](NC(=O)[C@H](CC(C)C)NC(=O)[C@H](CC(N)=O)NC(=O)[C@@H]1CCCN1C(=O)[C@H](CC(=O)O)NC(=O)[C@H](CC(C)C)NC(=O)[C@H](C)NC(=O)[C@H](CS)NC(=O)[C@H](CCCC(=O)NCCN(CC(=O)NCCN(CC(=O)NCCN(CC(=O)NCCN(CC(N)=O)C(=O)Cn1cnc2c(=O)[nH]c(N)nc21)C(=O)Cn1ccc(N)nc1=O)C(=O)Cn1ccc(N)nc1=O)C(=O)Cn1cnc2c(=O)[nH]c(N)nc21)NC(=O)[C@H](Cc1c[nH]c2ccccc12)NC(=O)[C@H](Cc1ccc(O)cc1)NC(=O)[C@H](CCCNC(=N)N)NC(=O)[C@H](CC(N)=O)NC(C)=O)[C@@H](C)O)C(=O)N[C@@H](Cc1ccc(O)cc1)C(=O)N[C@@H](CCC(=O)O)C(N)=O	ERBB2	binding, affinity selection mass spectrometry		1 h, 4 °C, unit not given	baseline: control-subtracted	enrichment	-0.57
C=CC(=O)N1CCC(COCC(=O)N2CCN(c3nc(-c4cnc(N)nc4C(F)F)nc(N4CCOC[C@@H]4C)n3)CC2)CC1	ERBB2	KINOMEscan		1 µM		remaining binding	100%
CC(C)[C@H](N)C(=O)Nc1ccc2ccccc2c1	rat aminopeptidase III	substrate		concentration not given, pH 7.0		hydrolysis	inactive
S=c1[nH]nc(-c2cc(-c3ccccc3)nc3ccccc23)o1	P2X purinoceptor 4 (P2RX4, Homo sapiens, UniProt Q99571)	calcium mobilization	MCF7 stably transfected	100 µM, with: ATP 100 µM		fluorescence increase	80.2 ± 1.77%
CCN1CCC[C@H]1CNC(=O)c1c(O)c(Cl)cc(Cl)c1OC	Neuropeptide FF receptor 1 (NPFFR1, Homo sapiens, UniProt Q9GZQ6)	β-arrestin recruitment, TANGO luminescence, measured: NPFF1		concentration not given	baseline: basal luminescence	log2 fold change	0.789
CCCCC[C@H](O)/C=C/[C@H]1[C@H](O)CC(=O)[C@@H]1C/C=C\CCCC(=O)O	Prostaglandin E2 receptor EP1 subtype (PTGER1, Homo sapiens, UniProt P34995, S42A)	IP1 accumulation, agonist	AD293	1 h, EP1 S42A mutant		Emax	93.3 ± 5.16%
NS(=O)(=O)NCCNc1nonc1C(=NO)Nc1ccc(F)c(Br)c1	Indoleamine 2,3-dioxygenase 1 (IDO1, Homo sapiens, UniProt P14902)	thermal stability, nanoDSF		50 µM, 1% DMSO, no DTT, with: unlabelled protein 2.5 µM		ΔTi	4.2 °C
COc1ccc(/C=C2\SC(=O)N(Cc3nc4ccccc4s3)C2=O)cc1	AKR1B1	enzyme activity, inhibitor				log IC50	2.98 log nM
CC(=O)N[C@H](C(=O)N1C[C@H](O)C[C@H]1C(=O)NCc1ccc(-c2scnc2C)cc1)C(C)(C)SCCCCCCNC(=O)C[C@@H]1N=C(c2ccc(Cl)cc2)c2c(sc(C)c2C)-n2c(C)nnc21	BRD4/VHL, BD2; with elongins B/C (Homo sapiens, UniProt O60885+P40337, A384K/E383V/K378Q)	ITC		25 °C, with: BRD4 BD2	baseline: binary Kd over ternary Kd	cooperativity	2
CC1=NN(c2ccc(Cl)cc2)C(=O)C1=NNc1ccc(S(N)(=O)=O)cc1	bovine α-glucosidase	enzyme activity, inhibitor, glucose oxidase		500 µg/mL, with: maltose		inhibition	52.2%
Nc1ncnc2c1ncn2[C@@H]1O[C@H](CSCC[C@H](N)C(=O)O)[C@@H](O)[C@H]1O	O-methyltransferase (Sorghum bicolor, UniProt A0A1B6PFV1)	ITC		concentration not given, with: PTR+		binding stoichiometry	1 ± 0.014
CCCC[C@H](NC(=O)[C@H](C)c1c(C)[nH]c2ccc(O)cc12)c1ncc(-c2cc3ccccc3nc2OC)[nH]1	Prostaglandin E2 receptor EP3 subtype (PTGER3, Homo sapiens, UniProt P43115)					Hill coefficient	1.2
CCc1nc2nc(C)cc(Nc3ccc(C(F)(F)F)cc3)n2n1	pyrD	enzyme activity, inhibitor, colorimetric HTS, measured: DCIP reduction		3 µM	direction not given	robust Z-score	21.1
CCc1cnn2c(NCc3ccc[n+]([O-])c3)cc(N3CCCC[C@H]3CCO)nc12	Bromodomain-containing protein 4 (BRD4, Homo sapiens, UniProt O60885)	19F NMR, measured: tyrosine 119		47 µM	baseline: free protein	chemical shift change	-0.084 ppm
CCCCC/C=C\C/C=C\C/C=C\C/C=C\CCCC(=O)O	Cytochrome P450 2J2 (CYP2J2, Homo sapiens, UniProt P51589, L2A/T318V)	substrate		50 µM		metabolism rate	42.8 ± 1.3 pmol/min/nmol CYP2J2
Nc1ncnc2c1ncn2[C@@H]1O[C@H](COP(=O)(O)CP(=O)(O)OP(=O)(O)O)[C@@H](O)[C@H]1O	P2X purinoceptor 1 (P2RX1, Homo sapiens, UniProt P51575, K215A)	saturation binding	HEK293	1 nM		specific binding	160 CCPM and 204 CCPM
Cl.Cl.NNCCc1ccc(NC(=O)CCCc2ccccc2)cc1	MAOB	peroxidase-coupled		with: tyramine		kinact	0.26 ± 0.14 min⁻¹

SMILES	target	assay	test system	setting	how to read	measurement	value
CC1=NCCNC(=O)C1=NNc1ccc(S(N)(=O)=O)cc1	bovine α-glucosidase	enzyme activity, inhibitor, glucose oxidase		100 µg/mL, with: maltose		inhibition	46%
C[S+](CC[C@H](N)C(=O)O)C[C@H]1O[C@@H](n2cnc3c(N)ncnc32)[C@H](O)[C@@H]1O (stereo partly shown)	T2, riboswitch RNA SAM-I metF-H2 (Thermoanaerobacter tengcongensis)	ITC		apparent		binding	binds
C[C@H](NCc1ccc(OCc2cccc(F)c2)cc1)C(N)=O	MAOB	enzyme activity, reversible inhibitor		concentration not given, 15 min pre-incubation		activity recovery time	48 min
C=CC1=C(C)/C(=C/C2=NC(=C\c3[nH]c(/C=C4\NC(=O)C(C)=C4C=C)c(C)c3CCC(=O)O)/C(CCC(=O)O)=C2C)NC1=O	T3, riboswitch RNA yjdF aptamer domain (Bacillus subtilis)	fluorescence titration				Kd	0.64 µM
CSCC[C@H](N)C(=O)Nc1ccc2ccccc2c1	rat aminopeptidase III	substrate		MW 110 kDa		kcat	5.17 s⁻¹
O=c1nc(SCc2cc(F)cc(C(F)(F)F)c2)nc(SCc2ccc3nc(Cl)ccc3c2)[nH]1	DNA topoisomerase 2-alpha (TOP2A, Homo sapiens, UniProt P11388)	decatenation		31.25 µM		mean decatenated DNA	0.1%
C[C@]12C[C@H](O)[C@H]3[C@@H](CCC4=CC(=O)CC[C@@]43C)[C@@H]1CC[C@@H]2C(=O)CO	Cytochrome P450 11B1, mitochondrial (CYP11B1, Homo sapiens, UniProt P15538)		nanodiscs	25 °C, fast phase		kon	240000 ± 30000 M⁻¹ s⁻¹
CCn1c(C(=O)N(C2CC2)C2CC2)cc2c3c(ncn3C)c(Nc3cc(C)n(C)n3)nc21	Cytochrome P450 2J2 (CYP2J2, Homo sapiens, UniProt P51589)	substrate, measured: metabolite M1 formation				Vmax	0.5 pmol/min/pmol
[H]/N=C(/N)NCC(=O)O	Sodium- and chloride-dependent taurine transporter (SLC6A6, Homo sapiens, UniProt P31641, G62A)	binding, microscale thermophoresis		1.95 µM, room temperature, with: 50 nM labelled protein	higher = more binding	normalised MST signal	-0.0905
Oc1ccccc1-c1n[nH]cc1-c1ccnc2ccccc12	Cyclin-dependent kinase 1 (CDC28, Candida albicans, UniProt P43063)	kinase binding, MIB/MS competition	Candida albicans lysate	1 µM	baseline: DMSO, negative = stronger binding	log2 fold change	-0.07
NCCCCC(=O)O	Sodium- and chloride-dependent taurine transporter (SLC6A6, Homo sapiens, UniProt P31641, Y138A)	binding, microscale thermophoresis		500 µM, room temperature, with: 50 nM labelled protein	higher = more binding	normalised MST signal	0.00782
O=C(c1ccc(C(=O)N2CCC(N3CCCC3)CC2)c(Nc2ccccc2)c1)N1CCC(N2CCCC2)CC1	Lethal(3)malignant brain tumor-like protein 3, MBT domains (Homo sapiens, UniProt Q96JM7)	FRAP	human cells	0.05 µM		diffusion coefficient	0.156 µm2/s
C=CC(=O)N1CCC[C@@H](n2nc(-c3ccc(Oc4ccccc4)cc3)c3c(N)ncnc32)C1	Dual specificity tyrosine-phosphorylation-regulated kinase 2 (DYRK2, Homo sapiens, UniProt Q92630)			1 µM		remaining activity	82.3%
Cc1cc(Nc2ccc(S(F)(F)(F)(F)F)cc2)n2nc(C(F)(F)F)nc2n1	pyrD	enzyme activity, inhibitor, colorimetric HTS, measured: DCIP reduction		3 µM	direction not given	robust Z-score	24.6
CNc1ncc2c(/C=C/C(=O)N3CCC(OC)CC3)nn(Cc3cccc(C(F)(F)F)c3)c2n1	Non-receptor tyrosine-protein kinase TNK1 (TNK1, Homo sapiens, UniProt Q13470)	kinase activity, inhibitor		1 µM	baseline: untreated control	remaining activity	89%
O=C(COc1cccc(Cl)c1Cl)Nc1cc(C2CC2)nn1C1CCC(F)(F)CC1	Kir3.1/Kir3.4	thallium flux, activator	HEK293		baseline: standard compound	Emax	36%
Cc1ccc(C(C)C)cc1O	uncharacterized protein (Solanum tuberosum, UniProt M0ZZL3)	inhibitor, UDP-Glo		with: 100 µM UDP-glucose		reaction velocity	0 nmol/min/mg
Nc1ncnc2c1ncn2[C@@H]1O[C@H](CO[P@](=O)(O)O[P@](=O)(O)O[P@@](=O)(O)S)[C@@H](O)[C@H]1O	GUK1 (Homo sapiens, UniProt Q16774, K17A)	binding, ITC		with: GMP		-TΔS	-1.97 kcal/mol
O=C(COc1cccc(Cl)c1Cl)NCc1cccs1	Kir3.1/Kir3.4	activator, thallium flux	HEK293	concentration not given		activity	inactive
N[C@@H](Cc1ccc(O)cc1)C(=O)O	bacterial tyrosinase	substrate				Km	250 µM
O=C(COc1ccc(C(F)(F)F)cc1C(F)(F)F)Nc1cc(C2CC2)nn1C1CCOCC1	Kir3.1/Kir3.4	thallium flux, activator	HEK293		baseline: standard compound	Emax	63%
NC/C(=C\F)COc1cccc(Cn2c(=S)[nH]c(=O)c3[nH]cnc32)c1	Amine oxidase [copper-containing] 3 (Rattus norvegicus, UniProt O08590)		rat adipose tissue	0.3333 µM		inhibition	98.4%
C=CC(=O)N1CCC(C(=O)NCC(=O)N2CCN(c3nc(-c4cnc(N)nc4C(F)F)nc(N4CCOCC4)n3)CC2)CC1	Calcium/calmodulin-dependent protein kinase type 1B (PNCK, Homo sapiens, UniProt Q6P2M8)	KINOMEscan		1 µM		remaining binding	100%
